# Measurements gathered from unrelated publications.
# Sequence of UniProt Q15759 (whole entry, looked up): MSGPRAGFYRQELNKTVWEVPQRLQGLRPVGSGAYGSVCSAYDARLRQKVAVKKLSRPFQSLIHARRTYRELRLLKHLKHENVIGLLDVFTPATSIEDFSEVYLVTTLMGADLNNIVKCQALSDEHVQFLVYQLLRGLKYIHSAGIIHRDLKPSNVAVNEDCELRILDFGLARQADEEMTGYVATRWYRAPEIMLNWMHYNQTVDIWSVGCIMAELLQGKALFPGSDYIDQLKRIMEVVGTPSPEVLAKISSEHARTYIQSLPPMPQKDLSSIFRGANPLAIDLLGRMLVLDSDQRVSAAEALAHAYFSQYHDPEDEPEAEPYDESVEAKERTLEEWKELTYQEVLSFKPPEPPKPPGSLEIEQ
Compound,tested on,assay,system,conditions,measurement,result
Cc1cc(C)nc(Nc2ncc(C(=O)NCCc3c(C)[nH]c4ccccc34)cn2)c1,,metabolic stability,"cynomolgus monkey, liver microsomes",1 µM,half-life,0.117 h
C/C=C1/CN2CC[C@]34C(=C(C(=O)OC)[C@H]1C[C@H]23)Nc1ccccc14,,,Caco-2,"10 µM, 2 h, pH 7.4",efflux ratio,1
O=C(Nc1cccnn1)N1CCN([C@@H]2CCOc3cc(C(F)(F)F)ccc32)CC1,,,"male Sprague-Dawley rat, brain","oral, 1 mg/kg, 1 h",concentration,664 ng/g
CCC[C@@](N)(CO)CCc1ccc(OCCCCCC(C)C)cc1,,,"rat, plasma","oral, 100 mg/kg",bioavailability,28%
CC(=O)c1c([O-])cc(C)oc1=O.[Na+],,,"rat, serum","oral, 200 mg/kg",Cmax,245 µg/mL
CC[C@H](C)CCCCC(=O)N[C@@H](CCN)C(=O)N[C@H](C(=O)N[C@@H](CCN)C(=O)N[C@H]1CCNC(=O)[C@H]([C@@H](C)O)NC(=O)[C@H](CCN)NC(=O)[C@H](CCN)NC(=O)[C@H](CC(C)C)NC(=O)[C@@H](CC(C)C)NC(=O)[C@H](CCN)NC1=O)[C@@H](C)O,,,"male Sprague-Dawley rat, plasma","subcutaneous, 10 mg/kg",half-life,2.04 h
CC(C)C[C@H](NC(=O)[C@H](Cc1ccccc1)NC(=O)[C@H](Cc1ccccc1)NC(=O)Cc1ccc(-c2ccccc2)cc1)C(=O)N[C@@H](CCCCN)C(=O)N[C@@H](CCCNC(=N)N)C(=O)N[C@H](C(=O)N[C@@H](Cc1c[nH]c2ccccc12)C(=O)N[C@@H](CCCCN)C(=O)N[C@@H](CCCNC(=N)N)C(=O)O)C(C)C,,"metabolic stability, mass spectrometry","human, liver microsomes",5 min,compound remaining,59.7%
CC(C)(N)CNC(=O)O[C@@H]1CCC[C@]2(C1)OOC1(O2)C2CC3CC(C2)CC1C3 (stereo partly drawn),,,"male CD-1 mouse, plasma","intravenous, 3 mg/kg",MRT(0-inf),0.428 h
C=C(C)[C@@H]1CC[C@]2(NCCN3CCS(=O)(=O)CC3)CC[C@]3(C)[C@H](CC[C@@H]4[C@@]5(C)CC=C(C6=CC[C@@](COc7ncccc7C#N)(C(=O)O)CC6)C(C)(C)[C@@H]5CC[C@]43C)[C@@H]12,,,"human, plasma","oral, 100 mg, fed, tablet",AUC(0-inf),58900 ng·h/mL
C/C=C1/CN2CC[C@]34C(=Nc5ccccc53)[C@@H]2C[C@@H]1C4(COC(C)=O)C(=O)OC (stereo partly drawn),,,Caco-2,pH 7.4,Papp A→B,38.8 ×10⁻⁶ cm/s
Cl.Cn1c(=O)n(CCCCN2CCC3(CC2)OCc2ccccc23)c2ccccc21,,,"male Sprague-Dawley rat, plasma","intravenous, 5 mg/kg",half-life,4.4 h
C[C@H]1O[C@@H](O[C@H]2[C@@H](O)C[C@H](O[C@H]3[C@@H](O)C[C@H](O[C@H]4CC[C@@]5(C)[C@H](CC[C@@H]6[C@@H]5C[C@@H](O)[C@]5(C)[C@@H](C7=CC(=O)OC7)CC[C@]65O)C4)O[C@@H]3C)O[C@@H]2C)C[C@H](O)[C@@H]1O,,,Caco-2,pH 7.4,Papp B→A,4.2 ×10⁻⁶ cm/s
NCCNC(=O)O[C@H]1CCC[C@@]2(C1)OOC1(O2)C2CC3CC(C2)CC1C3 (stereo partly drawn),,,"male CD-1 mouse, plasma","oral, 10 mg/kg",AUC(0-inf),1090 ng·h/mL
N=C(N)NCCC[C@@H](NC(=O)[C@@H](N)Cc1ccccc1)C(=O)N[C@@H](Cc1ccccc1)C(=O)N[C@@H](CCCCN)C(N)=O,,,"human, plasma","subcutaneous, 5 mg, multiple doses, once daily, patients",half-life,2.99 h
[18FH],,,"mouse, lung","intravenous, 1 h",tracer uptake,0.19 %ID/g
CC[C@H](C)[C@H](NC(=O)[C@H](CC(C)C)NC(=O)[C@@H](NC(=O)[C@H](CCCCN)NC(=O)[C@H](CCCNC(=N)N)NC(=O)[C@H](CCCCN)NC(=O)[C@H](CC(C)C)NC(=O)[C@H](Cc1ccc(O)cc1)NC(=O)[C@@H](NC(=O)[C@@H](NC(=O)[C@H](Cc1ccccc1)NC(=O)CN)C(C)C)C(C)C)[C@@H](C)O)C(=O)N[C@@H](CCCNC(=N)N)C(=O)N[C@@H](CC(C)C)C(=O)N[C@@H](CC(C)C)C(=O)N[C@@H](Cc1ccccc1)C(=O)N[C@H](C(=O)N[C@@H](CC(N)=O)C(=O)N[C@@H](CCCCN)C(=O)N[C@@H](CCCCN)C(=O)N[C@H](C(=O)N[C@H](C(=O)N[C@H](C(=O)N[C@@H](CCC(=O)O)C(=O)N[C@@H](CCCCN)C(=O)N[C@@H](CC(C)C)C(=O)N[C@@H](CCCNC(=N)N)C(=O)N[C@@H](CS)C(=O)N[C@H](C(=O)N[C@@H](CCCNC(=N)N)C(=O)N1CCC[C@H]1C(=O)N[C@@H](CO)C(=O)N[C@@H](CCCNC(=N)N)C(=O)N1CCC[C@H]1C(=O)N1CCC[C@H]1C(=O)N[C@@H](CCCNC(=N)N)C(=O)NCC(=O)N[C@@H](Cc1ccccc1)C(=O)O)C(C)C)[C@@H](C)CC)[C@@H](C)O)[C@@H](C)O)[C@@H](C)O,,chemical stability,"male human, serum","2 mg/mL, 30 min",compound remaining,11%
CC(C)NCC(O)COc1cccc2ccccc12 (stereo not drawn),,,Caco-2,"10 µM, 2 h, pH 7.4",Papp A→B,29.1 ×10⁻⁶ cm/s
CC(=O)c1c(C)c2cnc(Nc3ccc(C4CCN(CCS(C)(=O)=O)CC4)cn3)nc2n(C2CCCC2)c1=O,,general toxicity,Sprague-Dawley rat,"oral, multiple doses",MTD,60 mg/kg/day
N=c1c2c(-c3ccccc3)c(-c3ccccc3)n(Cc3ccccc3)c2ncn1[C@H]1CC[C@H](O)CC1,,,"male beagle dog, plasma","intravenous, 0.5 mg/kg, single dose",AUC(0-t),4400 ng·h/mL
Cc1[nH]c(C)c(S(=O)(=O)Nc2ccc(S(F)(F)(F)(F)F)cc2)c1C(=O)N1CCC(F)(F)C1,,,PAMPA,,Papp,6.4 ×10⁻⁶ cm/s
CC1(CC(F)(F)F)NC(=O)N(c2ccc(F)c(C(F)(F)F)c2)C1=O (stereo not drawn),,HPLC,,pH 7.4,chromatographic logD,3.4
CN(C)C1(CNC(=O)c2ccc3c(c2)CCN3C(=O)c2ccccc2)CCOCC1,,,"male C57BL/6 mouse, brain","intraperitoneal, 50 mg/kg, 2 h, unbound",concentration,42.3 nM
CC(C)CC(=O)OC[C@H]1O[C@@](C#N)(c2ccc3c(N)ncnn23)[C@H](O)[C@@H]1O,,general toxicity,Sprague-Dawley rat,"oral, single dose",MTD,≥ 3000 mg/kg
COc1ccc(C[C@@H](C)[C@@H](C)Cc2ccc(OC)c(OC)c2)cc1OC,,general toxicity,male beagle dog,"oral, multiple doses",NOAEL,300 mg/kg/day
CC1(C)NC(=O)N(c2cc(Cl)c(F)c(C(F)(F)F)c2)C1=O,,HPLC,,pH 7.4,chromatographic logD,3.3
CN1CCN(S(=O)(=O)c2cc([N+](=O)[O-])ccc2N(CCOS(C)(=O)=O)CCOS(C)(=O)=O)CC1,,,"female SCID mouse, plasma","intraperitoneal, 10 mg/kg",MRT(0-inf),0.39 h
COc1ccc(F)cc1C(=O)NCc1ccc(-c2nn([C@@H](C)C(F)(F)F)c(N)c2C(N)=O)cc1,,,"human, plasma","oral, 200 mg, single dose",AUC(0-t),55000 ng·h/mL
[2H]c1c([2H])c([C@]2([2H])CCCN2C(=O)C(C)(C)Oc2ccc3cn[nH]c3c2)c([2H])c([2H])c1C([2H])([2H])[2H],"MAPK11 (Homo sapiens, UniProt Q15759)","binding, competition with immobilised ligand",,1 µM,remaining binding,83%
Cc1nonc1Cn1nnc2c(N3CC[C@H](O)C3)nc(C(C)(C)C)nc21,,metabolic stability,"mouse, hepatocytes",,hepatocyte CLint,167 µL/min/10⁶ cells
CCOC(=O)c1cn(CC)c2cc(O[C@H]3CCN(C(=O)OC(C)(C)C)C3)ccc2c1=O,"PFF0160c (Plasmodium falciparum, UniProt Q08210, E182D)","enzyme activity, inhibitor, absorbance",,,IC50,> 10 µM
CC(C)(C)[C@H](NC(=O)[C@H](CCONC(=N)N)NC(=O)Cc1ccc(CNC(=N)N)cc1)C(=O)N[C@@H](CCONC(=N)N)C(=O)NCc1ccc(C(=N)N)cc1,,,"male Sprague-Dawley rat, plasma","intravenous, 1 mg/kg",AUC(0-inf),2290 ng·h/mL
Oc1ccc(-c2cc(COc3ccccc3C(F)(F)F)c(C3=CCNCC3)cc2COc2ccccc2C(F)(F)F)cc1,"PFF0160c (Plasmodium falciparum, UniProt Q08210)","enzyme activity, inhibitor, absorbance",,,IC50,> 10 µM
Nc1nc(-c2ccccc2)nc2[nH]nc(Nc3ccc(C(F)(F)F)cc3)c12,,,"mouse, plasma","oral, 100 mg/kg, 7 h",concentration,0.614 µg/mL
